Values quoted from earlier work, collected from citations in different studies.
± gives the spread as reported.
Gastrin-releasing peptide receptor: Gastrin-releasing peptide receptor (Rattus norvegicus, UniProt P52500)
UniProt P52500, sequence (whole entry, looked up): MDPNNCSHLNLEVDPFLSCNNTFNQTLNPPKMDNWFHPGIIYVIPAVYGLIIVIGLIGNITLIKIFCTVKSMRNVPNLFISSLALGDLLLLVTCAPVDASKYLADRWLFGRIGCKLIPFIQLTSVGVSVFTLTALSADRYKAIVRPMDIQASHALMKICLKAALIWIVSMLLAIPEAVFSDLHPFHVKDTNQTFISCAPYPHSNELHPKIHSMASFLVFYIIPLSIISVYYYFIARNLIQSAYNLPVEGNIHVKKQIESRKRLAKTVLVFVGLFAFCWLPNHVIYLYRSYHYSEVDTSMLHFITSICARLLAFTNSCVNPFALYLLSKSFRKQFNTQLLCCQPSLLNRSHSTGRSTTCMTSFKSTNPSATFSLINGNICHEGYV
gag-pol integrase: Gag-Pol polyprotein, integrase (gag-pol, Human immunodeficiency virus type 1 group M subtype B, UniProt P04585)
atpG/atpA/atpD: atpG/atpA/atpD (Escherichia coli, UniProt P0ABA6+P0ABB0+P0ABB4)
UniProt P0ABA6, sequence (whole entry, looked up): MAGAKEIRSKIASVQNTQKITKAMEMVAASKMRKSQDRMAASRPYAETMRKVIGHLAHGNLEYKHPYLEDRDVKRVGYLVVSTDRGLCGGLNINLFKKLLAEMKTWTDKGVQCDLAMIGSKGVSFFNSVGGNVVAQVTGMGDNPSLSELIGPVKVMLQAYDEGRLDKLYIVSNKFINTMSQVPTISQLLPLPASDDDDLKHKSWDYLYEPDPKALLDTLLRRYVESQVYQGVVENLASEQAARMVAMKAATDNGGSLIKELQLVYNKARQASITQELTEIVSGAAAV
UniProt P0ABB0, sequence (whole entry, looked up): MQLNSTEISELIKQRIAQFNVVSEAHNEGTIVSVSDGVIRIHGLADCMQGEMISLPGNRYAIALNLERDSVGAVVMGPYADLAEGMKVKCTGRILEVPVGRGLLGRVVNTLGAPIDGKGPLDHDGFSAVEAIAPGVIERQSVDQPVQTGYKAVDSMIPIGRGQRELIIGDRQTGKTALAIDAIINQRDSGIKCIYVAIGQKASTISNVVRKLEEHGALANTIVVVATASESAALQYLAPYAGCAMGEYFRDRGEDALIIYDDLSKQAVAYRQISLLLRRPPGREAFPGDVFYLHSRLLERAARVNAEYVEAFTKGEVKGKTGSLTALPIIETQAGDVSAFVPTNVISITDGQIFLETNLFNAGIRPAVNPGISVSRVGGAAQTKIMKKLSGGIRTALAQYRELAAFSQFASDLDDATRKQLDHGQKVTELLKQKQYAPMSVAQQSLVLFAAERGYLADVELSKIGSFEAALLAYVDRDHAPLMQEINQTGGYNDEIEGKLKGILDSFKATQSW
UniProt P0ABB4, sequence (whole entry, looked up): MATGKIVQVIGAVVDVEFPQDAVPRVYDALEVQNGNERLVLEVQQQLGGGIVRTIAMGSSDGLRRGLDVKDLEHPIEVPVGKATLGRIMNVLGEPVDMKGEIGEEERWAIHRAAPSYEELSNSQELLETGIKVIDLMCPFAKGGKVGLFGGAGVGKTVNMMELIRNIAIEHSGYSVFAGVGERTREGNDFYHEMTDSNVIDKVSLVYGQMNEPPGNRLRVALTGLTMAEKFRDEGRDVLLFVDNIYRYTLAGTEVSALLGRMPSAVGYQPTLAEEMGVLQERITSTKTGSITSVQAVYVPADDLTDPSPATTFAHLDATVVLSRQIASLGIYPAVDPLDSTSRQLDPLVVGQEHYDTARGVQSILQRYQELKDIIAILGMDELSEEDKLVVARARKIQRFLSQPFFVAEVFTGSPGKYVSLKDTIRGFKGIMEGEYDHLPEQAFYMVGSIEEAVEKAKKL
UniProt P0A6F5, sequence (whole entry, looked up): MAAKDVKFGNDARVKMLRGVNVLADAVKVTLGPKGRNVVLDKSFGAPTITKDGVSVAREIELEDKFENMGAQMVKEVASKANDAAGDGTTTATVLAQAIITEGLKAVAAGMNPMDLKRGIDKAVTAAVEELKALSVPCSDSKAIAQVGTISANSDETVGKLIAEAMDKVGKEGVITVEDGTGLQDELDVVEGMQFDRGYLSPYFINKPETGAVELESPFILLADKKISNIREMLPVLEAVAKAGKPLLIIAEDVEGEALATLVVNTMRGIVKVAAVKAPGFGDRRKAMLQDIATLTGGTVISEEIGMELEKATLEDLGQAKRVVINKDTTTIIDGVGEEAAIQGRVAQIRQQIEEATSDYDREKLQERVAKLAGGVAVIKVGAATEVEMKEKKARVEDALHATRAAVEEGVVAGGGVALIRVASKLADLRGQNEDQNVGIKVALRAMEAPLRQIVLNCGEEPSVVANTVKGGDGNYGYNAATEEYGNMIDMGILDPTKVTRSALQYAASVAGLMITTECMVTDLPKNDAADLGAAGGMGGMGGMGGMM
UniProt P29965, sequence (whole entry, looked up): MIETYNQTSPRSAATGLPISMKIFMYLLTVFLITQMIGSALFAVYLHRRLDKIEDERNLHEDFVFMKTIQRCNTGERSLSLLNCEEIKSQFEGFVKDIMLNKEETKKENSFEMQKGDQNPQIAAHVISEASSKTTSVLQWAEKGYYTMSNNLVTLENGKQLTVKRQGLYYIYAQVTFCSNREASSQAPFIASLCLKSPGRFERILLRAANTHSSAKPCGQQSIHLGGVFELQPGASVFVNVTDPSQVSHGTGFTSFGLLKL
UniProt P22007, sequence (whole entry, looked up): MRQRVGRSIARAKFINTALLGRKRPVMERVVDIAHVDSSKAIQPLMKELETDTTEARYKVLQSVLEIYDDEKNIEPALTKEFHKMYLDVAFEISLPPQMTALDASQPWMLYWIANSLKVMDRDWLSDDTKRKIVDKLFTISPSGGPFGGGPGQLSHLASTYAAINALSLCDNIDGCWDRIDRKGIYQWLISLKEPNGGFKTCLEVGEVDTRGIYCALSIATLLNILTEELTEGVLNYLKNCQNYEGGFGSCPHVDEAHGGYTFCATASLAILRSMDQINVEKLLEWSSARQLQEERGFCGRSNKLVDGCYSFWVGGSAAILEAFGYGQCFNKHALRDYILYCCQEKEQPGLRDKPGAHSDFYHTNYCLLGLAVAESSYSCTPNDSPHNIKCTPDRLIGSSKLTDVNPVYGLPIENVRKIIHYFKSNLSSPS
UniProt Q8R2Y0, sequence (whole entry, looked up): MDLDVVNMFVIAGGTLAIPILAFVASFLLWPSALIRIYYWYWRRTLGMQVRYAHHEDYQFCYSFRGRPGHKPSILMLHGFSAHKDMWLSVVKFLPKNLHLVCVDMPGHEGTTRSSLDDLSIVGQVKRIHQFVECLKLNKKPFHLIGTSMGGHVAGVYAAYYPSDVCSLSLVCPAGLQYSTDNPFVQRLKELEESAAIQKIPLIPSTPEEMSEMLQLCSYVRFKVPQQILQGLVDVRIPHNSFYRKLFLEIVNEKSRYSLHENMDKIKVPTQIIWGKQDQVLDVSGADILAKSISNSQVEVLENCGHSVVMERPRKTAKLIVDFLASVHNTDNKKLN
UniProt Q9UNQ0, sequence (whole entry, looked up): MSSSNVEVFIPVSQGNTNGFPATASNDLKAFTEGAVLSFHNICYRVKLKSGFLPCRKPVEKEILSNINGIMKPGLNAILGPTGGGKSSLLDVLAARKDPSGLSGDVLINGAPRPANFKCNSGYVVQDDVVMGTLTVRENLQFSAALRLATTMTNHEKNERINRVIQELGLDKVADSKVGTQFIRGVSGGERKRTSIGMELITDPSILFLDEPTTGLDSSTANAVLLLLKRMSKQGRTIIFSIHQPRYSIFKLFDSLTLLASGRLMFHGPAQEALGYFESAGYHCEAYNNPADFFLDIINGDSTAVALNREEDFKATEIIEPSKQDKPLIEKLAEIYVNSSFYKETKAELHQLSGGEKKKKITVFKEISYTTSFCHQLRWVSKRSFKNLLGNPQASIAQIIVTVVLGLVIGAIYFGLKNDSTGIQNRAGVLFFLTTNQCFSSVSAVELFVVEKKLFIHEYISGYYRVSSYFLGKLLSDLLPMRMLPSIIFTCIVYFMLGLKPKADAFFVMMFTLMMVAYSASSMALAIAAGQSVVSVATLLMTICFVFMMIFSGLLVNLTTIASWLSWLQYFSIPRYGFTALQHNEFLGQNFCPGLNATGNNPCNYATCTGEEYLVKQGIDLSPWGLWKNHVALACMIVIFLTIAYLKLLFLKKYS
UniProt Q92911, sequence (whole entry, looked up): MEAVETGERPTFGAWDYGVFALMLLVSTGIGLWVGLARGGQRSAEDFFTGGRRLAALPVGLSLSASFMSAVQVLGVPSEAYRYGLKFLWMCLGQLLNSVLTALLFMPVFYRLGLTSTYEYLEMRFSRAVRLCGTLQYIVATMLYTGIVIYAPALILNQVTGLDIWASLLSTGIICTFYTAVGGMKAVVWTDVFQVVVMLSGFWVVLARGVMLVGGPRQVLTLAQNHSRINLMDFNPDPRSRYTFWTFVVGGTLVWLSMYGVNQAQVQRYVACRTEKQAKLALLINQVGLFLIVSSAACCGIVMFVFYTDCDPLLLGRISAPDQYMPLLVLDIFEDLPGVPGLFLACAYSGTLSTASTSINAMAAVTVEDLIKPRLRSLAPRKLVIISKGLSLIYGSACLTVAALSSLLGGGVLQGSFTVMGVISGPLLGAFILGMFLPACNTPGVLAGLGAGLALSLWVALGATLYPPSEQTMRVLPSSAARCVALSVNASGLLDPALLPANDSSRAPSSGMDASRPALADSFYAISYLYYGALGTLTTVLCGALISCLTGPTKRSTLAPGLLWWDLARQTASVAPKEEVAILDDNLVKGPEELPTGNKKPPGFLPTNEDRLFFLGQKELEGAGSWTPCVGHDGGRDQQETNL
UniProt Q8R431, sequence (whole entry, looked up): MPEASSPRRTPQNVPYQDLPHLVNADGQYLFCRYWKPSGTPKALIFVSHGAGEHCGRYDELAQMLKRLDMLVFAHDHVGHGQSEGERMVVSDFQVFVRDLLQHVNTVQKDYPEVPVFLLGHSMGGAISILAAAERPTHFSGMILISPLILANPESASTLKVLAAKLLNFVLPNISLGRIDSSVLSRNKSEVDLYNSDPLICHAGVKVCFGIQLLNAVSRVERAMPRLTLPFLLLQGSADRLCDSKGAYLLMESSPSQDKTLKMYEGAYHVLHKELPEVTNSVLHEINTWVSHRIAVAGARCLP

CCCCCCCNC(=O)[C@H](CC(C)C)NC(=O)[C@H](Cc1c[nH]cn1)NC(=O)CNC(=O)[C@@H](NC(=O)[C@H](C)NC(=O)[C@H](Cc1c[nH]c2ccccc12)NC(=O)[C@H](CCC(N)=O)NC(=O)[C@H](N)Cc1ccccc1)C(C)C — IC50 (Gastrin-releasing peptide receptor; binding; literature species comparison): 0.092 ± 0.012 µM
O=C(/C=C/c1ccc(O)c(O)c1)OCCc1ccccc1 — IC50 (HIV-1 integrase; inhibitor; published values): 18.9 µM
CCCNC(=O)[C@H](CC(C)C)NC(=O)[C@H](Cc1c[nH]cn1)NC(=O)CNC(=O)[C@@H](NC(=O)[C@H](C)NC(=O)[C@H](Cc1c[nH]c2ccccc12)NC(=O)[C@H](CCC(N)=O)NC(=O)[C@H](N)Cc1ccc(O)cc1)C(C)C — IC50 (Gastrin-releasing peptide receptor; binding; literature species comparison): 0.014 ± 0.001 µM
COc1ccc(C(=O)NN=Cc2ccc(O)c3ncccc23)cc1 — IC50 (Chaperonin GroEL, with GroES (groEL, Escherichia coli, UniProt P0A6F5); GroEL/ES-mediated refolding, inhibitor; with: denatured malate dehydrogenase): 31 µM
O=C(O)C(=O)C=C(O)c1cc(Cc2ccc(F)cc2F)cn(Cc2ccccc2F)c1=O — IC50 (gag-pol integrase; integrase strand transfer, inhibitor): 0.006 µM
C[C@@H]1O[C@@H](Oc2c(-c3ccc(O)c(O)c3)oc3cc(O)cc(O)c3c2=O)[C@H](O)[C@H](O)[C@H]1O — IC50 (atpG/atpA/atpD; ATP synthase activity, inhibitor): ~20 µM
O=C(CCN1CCCCC1)c1ccc(-c2ccc(C(=O)CCN3CCCCC3)cc2)cc1 — IC50 (histamine H3 receptor; inhibitor): 0.308 ± 0.003 µM
O=C(O)CCCCCCCCCCCNC(=O)NC12CC3CC(CC(C3)C1)C2 — IC50 (Soluble epoxide hydrolase (Gallus gallus, UniProt Q45QT1)): ~0.01 µM
COC1CCC(C(=O)c2ccc3nc4c(cc3c2)CCCO4)CC1 (stereo not shown) — IC50 (mGlu1 receptor; agonist-induced PI hydrolysis, antagonist): 0.0017 µM
CC(C)c1c(Cc2ccccc2)n(COCc2ccccc2)c(=O)n(N)c1=O — IC50 (gag-pol integrase; strand transfer, inhibitor, gel; HIV-1): > 111 µM
CCOc1cc(Oc2ccc(C(F)(F)F)cc2Cl)ccc1[N+](=O)[O-] — IC50 (SLC5A5 (Homo sapiens, UniProt Q92911); iodide uptake, inhibitor): 2 µM
O=C(Oc1ccc([N+](=O)[O-])cc1)N1CCC(C(O)(c2ccc3c(c2)OCO3)c2ccc3c(c2)OCO3)CC1 — IC50 (Monoglyceride lipase (Rattus norvegicus, UniProt Q8R431); 2-OG hydrolysis, inhibitor; rat cerebellum; 60 min preincubation): 0.0058 µM
O=C(O)[C@H](O)[C@@H](O)C(=O)O — IC50 (HIV integrase; enzyme activity, inhibitor): > 25 µM
Cc1ccc(C(=O)Nc2ccc(S(=O)(=O)O)c3cc(S(=O)(=O)O)cc(S(=O)(=O)O)c23)cc1NC(=O)c1cccc(NC(=O)Nc2cccc(C(=O)Nc3cc(C(=O)Nc4ccc(S(=O)(=O)O)c5cc(S(=O)(=O)O)cc(S(=O)(=O)O)c45)ccc3C)c2)c1 — IC50 (CD40 ligand, with CD40 (Homo sapiens, UniProt P29965); CD40-CD40L interaction): ~50 µM
Cc1oncc1C(=O)Nc1ccc(C(F)(F)F)cc1 — IC50 (ABCG2 (Homo sapiens, UniProt Q9UNQ0); transport): 4.53 µM
O=C(Oc1ccc([N+](=O)[O-])cc1)N1CCC(C(O)(c2ccc3c(c2)OCO3)c2ccc3c(c2)OCO3)CC1 — IC50 (Abhd6 (Mus musculus, UniProt Q8R2Y0); previously reported): 3.27 µM
O=C(O)C1=CC(=C(c2ccc(O)c(C(=O)O)c2)c2ccc(O)c(C(=O)O)c2)C=CC1=O — IC50 (HCV NS3 helicase; RNA unwinding, inhibitor): 0.4 ± 0.2 µM
CCCCCCCC(=O)SCC/C=C/[C@@H]1CC(=O)NCc2nc(cs2)C2=N[C@@](C)(CS2)C(=O)N[C@@H](C(C)C)C(=O)O1 — IC50 (HDAC1 (Homo sapiens, UniProt Q13547); enzyme activity): 0.04 µM
CC(C)c1ccc(O)c(=O)c(O)c1 — IC50 (Gag-Pol polyprotein, RNase H domain (gag-pol, Human immunodeficiency virus type 1 group M subtype B, UniProt P04585); RNase H activity, inhibitor; HIV-1): 0.2 µM
COC(=O)[C@H](CC(C)C)NC(=O)[C@H](Cc1cnc[nH]1)NC(=O)CNC(=O)[C@@H](NC(=O)[C@H](C)NC(=O)[C@H](Cc1c[nH]c2ccccc12)NC(=O)[C@H](CCC(N)=O)NC(=O)[C@H](N)Cc1ccccc1)C(C)C — IC50 (Gastrin-releasing peptide receptor; binding; literature species comparison): 0.0103 ± 0.0014 µM
OC[C@H]1OC(O)[C@@H](O)[C@@H](O)[C@@H]1O (stereo partly shown) — IC50 (CD209 antigen (CD209, Homo sapiens, UniProt Q9NNX6); binding): 2000 to 3000 µM
Cc1cc(O)c2c(=O)c3c(O)cc(O)c4c5c(O)cc(O)c6c(=O)c7c(O)cc(C)c8c1c2c(c34)c(c78)c65 — IC50 (UGT1A6 (Homo sapiens, UniProt P19224); enzyme activity, inhibitor; with: acetaminophen glucuronidation): 7.1 µM
O=C(O)c1cc(N(Cc2ccccc2O)Cc2ccccc2O)ccc1O — IC50 (Gag-Pol polyprotein, integrase with LEDGF/p75 (gag-pol, Human immunodeficiency virus 1, UniProt P12497); binding, AlphaScreen): 94.1 µM
CN1CC[C@]2(C)c3cc(OC(=O)Nc4ccccc4)ccc3N(C)[C@H]12 — IC50 (Cholinesterase (BCHE, Homo sapiens, UniProt P06276); enzyme activity, inhibitor): 23.5 ± 0.3 µM
C[n+]1cc2c3c(ccc2c2ccc4cc5c(cc4c21)OCO5)OCO3 — IC50 (glucocorticoid receptor; binding, competitor; with: dexamethasone 10 nM): ~10 µM
CCCCCCCCCCCCCC/C(C(=O)O)=C(\C)C(=O)O — IC50 (Farnesyltransferase (Saccharomyces cerevisiae S288c, UniProt P22007+P29703)): 17 µM
O=c1c(O)c(-c2ccc(O)c(O)c2)oc2cc(O)cc(O)c12 — IC50 (atpG/atpA/atpD; ATP synthase activity, inhibitor): ~33 µM
O=C(/C=C/c1ccc(O)c(O)c1)O[C@@H](C(=O)O)[C@@H](OC(=O)/C=C/c1ccc(O)c(O)c1)C(=O)O — IC50 (HIV integrase; enzyme activity, inhibitor): 0.06 µM

Some of these lines once more:
COc1ccc(C(=O)NN=Cc2ccc(O)c3ncccc23)cc1 — IC50 (Chaperonin GroEL, with GroES (groEL, Escherichia coli, UniProt P0A6F5); GroEL/ES-mediated refolding, inhibitor; with: denatured malate dehydrogenase): 31 µM
